Measurements gathered from unrelated publications.
Each line is one published result; not all experiments were run side by side. ± marks the error that the study gave. In brackets after ≈: the same amount, converted by molar mass.
UniProt P25929, sequence (whole entry, unmodified, looked up): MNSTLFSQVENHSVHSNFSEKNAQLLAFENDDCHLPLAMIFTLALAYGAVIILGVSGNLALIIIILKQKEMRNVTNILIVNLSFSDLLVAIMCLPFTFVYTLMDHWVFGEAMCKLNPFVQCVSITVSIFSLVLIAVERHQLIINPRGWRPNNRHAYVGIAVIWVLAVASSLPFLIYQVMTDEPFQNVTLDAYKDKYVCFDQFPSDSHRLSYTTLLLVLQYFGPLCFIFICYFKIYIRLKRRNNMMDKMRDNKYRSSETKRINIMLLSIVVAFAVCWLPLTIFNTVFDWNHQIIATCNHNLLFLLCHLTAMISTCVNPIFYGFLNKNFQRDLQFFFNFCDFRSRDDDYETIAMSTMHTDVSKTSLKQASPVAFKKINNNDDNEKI
UniProt P08684, sequence (whole entry, looked up): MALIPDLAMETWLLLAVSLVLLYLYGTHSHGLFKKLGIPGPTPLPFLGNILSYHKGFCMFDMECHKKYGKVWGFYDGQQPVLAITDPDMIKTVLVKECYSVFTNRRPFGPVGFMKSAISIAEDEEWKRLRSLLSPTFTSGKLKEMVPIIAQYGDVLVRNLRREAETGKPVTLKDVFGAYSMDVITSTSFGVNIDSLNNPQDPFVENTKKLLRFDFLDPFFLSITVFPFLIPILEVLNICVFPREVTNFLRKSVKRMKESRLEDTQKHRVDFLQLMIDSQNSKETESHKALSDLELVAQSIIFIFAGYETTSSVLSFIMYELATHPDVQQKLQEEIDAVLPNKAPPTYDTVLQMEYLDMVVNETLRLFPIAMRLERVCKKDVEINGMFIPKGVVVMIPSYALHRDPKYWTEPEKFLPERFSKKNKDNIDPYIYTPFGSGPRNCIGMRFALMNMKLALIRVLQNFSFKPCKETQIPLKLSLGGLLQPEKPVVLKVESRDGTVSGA

Structure (SMILES) | target or system | test | test system | setting | scale | endpoint | result
COc1ccc2cc(NC(=O)c3cc(-c4cccnc4)nc4ccccc34)ccc2c1 | Cytochrome P450 3A4 (CYP3A4, Homo sapiens, UniProt P08684) | substrate, measured: metabolite M2 | baculosomes | – | – | kcat/Km | 30800 M⁻¹ s⁻¹
[64Cu+2].c1cnc(CNCc2ccc(CN3CCCN4CCNCCCN(CC4)CC3)cc2)nc1 | CXCR4 (human) | – | NOD/SCID mice, U87 xenografts, small intestine | 240 min post-injection | – | tissue uptake | 4.33 ± 1.11 %ID/g
CC(=C(c1ccc(O)cc1)c1ccc(Cl)cc1)c1ccc(Cl)cc1 | NCI-60 tumour cell lines | – | – | 10 µM, mean over cell lines | – | growth inhibition | ≥ 100%
CC(=O)OC[C@H]1O[C@@H](Sc2sc(C(=O)c3ccc(Br)cc3)c(N)c2-c2nc3ccccc3s2)[C@H](OC(C)=O)[C@@H](OC(C)=O)[C@@H]1OC(C)=O | U-251 | SRB | – | 10 µM, 48 h | relative to: untreated | growth | 57.6%
CCC(=O)NCCCCNC(=O)NCc1ccc(CNC(=O)[C@@H](CCCNC(=N)N)NC(=O)C(c2ccccc2)c2ccccc2)cc1 | NPY1R (Homo sapiens, UniProt P25929, Q120N) | antagonist | human cells | – | – | Kb | 118 nM
C[C@@H]1O[C@@H](O[C@H]2[C@H](O[C@H]3CC[C@@]4(C)C(CC[C@]5(C)C4CC=C4C6CC(C)(C)CC[C@]6(C(=O)O[C@@H]6O[C@H](CO)[C@@H](O)[C@H](O)[C@H]6O)CC[C@]45C)[C@]3(C)CO)OC[C@H](O)[C@@H]2O)[C@H](O)[C@H](O[C@@H]2OC[C@@H](O)[C@H](O)[C@H]2O)[C@H]1O (stereo partly shown) | HepG2, palmitic acid-induced insulin resistance | – | – | 10.0 µM, 24 h | – | glucose consumption | 8.59 ± 1.46 mM
[64Cu+2].c1ccc(CNCc2ccc(CN3CCCN4CCNCCCN(CC4)CC3)cc2)nc1 | CXCR4 | – | NOD/SCID mouse, tumour | 90 min | relative to: U87-stb-CXCR4 over U87 | uptake ratio | 4.43 ± 1.38
CCC(=C(c1ccc(Cl)cc1)c1ccc(OCCN(CC)CC)cc1)c1ccc(Cl)cc1 | NCI-60 tumour cell lines | – | – | 10 µM, mean over cell lines | – | growth inhibition | 29.5%
CSCC[C@H](NC(=O)[C@H](CC(C)C)NC(=O)[C@H](Cc1c[nH]cn1)NC(=O)CNC(=O)[C@@H](NC(=O)[C@H](C)NC(=O)[C@H](Cc1c[nH]c2ccccc12)NC(=O)[C@H](CCC(N)=O)NC(=O)CCOCCOCCOCCOCCNC(=O)CN1CCN(CC(=O)O)CCN(CC(=O)O)CCN(CC(=O)O)CC1)C(C)C)C(N)=O [indium-111 labelled] | – | – | Swiss nu/nu mice, PC-3 xenograft | intravenous, 10 pmol, 1 h to 24 h post injection | – | tumour to pancreas ratio increase | 1 fold
CC(=O)[O-].O.O.[O-]c1ccc(Br)cc1C=NCCN1CCOCC1.[Zn+2] | Shigella flexneri | – | – | 20 µL of 100 µM per disc | – | inhibition zone diameter | 29 mm
COc1cc(CNC(=O)C[C@H](C)CCC=C(C)C)ccc1OCc1cn(-c2cccc(C(F)(F)F)c2)nn1 | MDA-MB-468 breast cancer cells | SRB | – | 10 µM, 48 h | – | growth percent | 64.9%
CSC(=S)N/N=C(\C)c1ccc(S(=O)(=O)N2CCC(C)CC2)cc1 | HepG2 | annexin V/PI staining | – | IC50, 72 h | – | necrotic cells | 1.58%
O=C1Nc2ccc(F)cc2C1=Cc1c(Cl)[nH]c2c1ccc1ccccc12 | leukaemia subpanel of NCI-60 | – | – | 48 h | – | TGI | 8710 nM
COc1cc(CNC(=O)C[C@H](C)CCC=C(C)C)ccc1OCc1cn(-c2ccccc2[N+](=O)[O-])nn1 | OVCAR-8 ovarian cancer cells | SRB | – | 10 µM, 48 h | – | growth percent | 48.6%
CCOC(=O)CNC(=O)/N=C(/N)NCCC[C@@H](NC(=O)C(c1ccccc1)c1ccccc1)C(=O)NCc1ccc(O)cc1 | NPY1R (Homo sapiens, UniProt P25929) | inositol phosphate, antagonist | – | – | – | Kb | 0.14 nM
C/C(=N/O)c1ccc(NS(=O)(=O)c2cccc(/C=C/C(=O)NO)c2)cc1 | MOPC-315 | cell growth | – | 24 h | relative to: belinostat | relative potency | 0.148
CC(=O)N[C@H](C(=O)N[C@H](C(=O)N[C@@H](CCCNC(=N)N)C(=O)N1Cc2ccccc2C[C@H]1C(=O)N[C@@H](Cc1ccccc1)C(N)=O)C1CCCCC1)C(C)C | MBP-specific BC-3 T cells | Bio-Plex multiplex, measured: IL-13 | – | 200 µg/mL, 24 h, added: MBP87-99 antigen | – | cytokine level | 60.1 ± 78.5 pg/mL
Cc1nc(C)c(C=[N+]([O-])C(C)(C)C)nc1C | – | Western blot, measured: PGC-1α | primary midbrain neurons, rat | 100 µM, added: 20 µM MPP+ | – | protein level increase | 37.4%
COc1cc(CNC(=O)C[C@H](C)CCC=C(C)C)ccc1OCc1cn(-c2ccccc2F)nn1 | OVCAR-8 ovarian cancer cells | SRB | – | 10 µM, 48 h | – | growth percent | 66.5%
CCc1cnc(NC(=O)c2cc(S(=O)(=O)N3CCOCC3)ccc2N(C)C2CCCC2)s1 | HCC827 and HCC827-GR | Western blot, measured: PTK7, MET, STAT3 signalling | – | 10 µM, 24 h | – | PTK7 and MET N-glycosylation | decreased
O=[N+]([O-])c1ccc(/C=N/NC(=S)Nc2ccccc2)s1 | HEL human lung fibroblasts | altered cell morphology, microscopy | – | confluent cultures | – | cytotoxic concentration | ≥ 20 µM
Cc1ccc(-c2cn([C@H]3C[C@H](O)[C@@H](CO)O3)c3ncnc(N)c23)cc1 | HEK | cytotoxicity | – | – | – | EC50 | > 200000 nM
COc1cc(CNC(=O)C[C@H](C)CCC=C(C)C)ccc1OCc1cn(-c2ccccc2)nn1 | HCC 2998 | SRB | – | 10 µM, 48 h | – | growth percent | 93.3%
COc1cc(CCC(C)=O)ccc1O | mouse mAb 1-G12 | antibody binding, indirect competitive ELISA | – | added: coating antigen 1-OVA | – | IC50 | 1.02 µg/mL (≈ 5.25 µM)
COc1cc(CNC(=O)C[C@H](C)CCC=C(C)C)ccc1OCc1cn(-c2ccccc2Cl)nn1 | UACC-257 melanoma cells | SRB | – | 10 µM, 48 h | – | growth percent | 60.3%
CCOC(=O)c1nc2cc(Cl)c(Cl)cc2nc1N1CCN(C(=O)Nc2ccc(N3CCNCC3)cc2)CC1 | RAW264.7, resting | – | – | 5 µM | – | lactate production | no effect
COc1cc(CNC(=O)C[C@H](C)CCC=C(C)C)ccc1OCc1cn(-c2ccc([N+](=O)[O-])cc2)nn1 | OVCAR-4 ovarian cancer cells | SRB | – | 10 µM, 48 h | – | growth percent | 63.8%
CC(C)(C)CC(C)(C)Nc1c(-c2ccc3c(c2)OCO3)nc2cnccn12 | CT26 | scratch | – | 50 µM, 24 h | relative to: untreated | cell migration | 28.8%

Repeated from above:
Structure (SMILES) | target or system | test | test system | setting | scale | endpoint | result
COc1cc(CCC(C)=O)ccc1O | mouse mAb 1-G12 | antibody binding, indirect competitive ELISA | – | added: coating antigen 1-OVA | – | IC50 | 1.02 µg/mL (≈ 5.25 µM)
COc1cc(CNC(=O)C[C@H](C)CCC=C(C)C)ccc1OCc1cn(-c2ccc([N+](=O)[O-])cc2)nn1 | OVCAR-4 ovarian cancer cells | SRB | – | 10 µM, 48 h | – | growth percent | 63.8%
